Assay results gathered from unrelated publications.
Every numbered part comes from another study and shows a few of its results, in no order.
Sequence of UniProt P49759 (whole entry, looked up): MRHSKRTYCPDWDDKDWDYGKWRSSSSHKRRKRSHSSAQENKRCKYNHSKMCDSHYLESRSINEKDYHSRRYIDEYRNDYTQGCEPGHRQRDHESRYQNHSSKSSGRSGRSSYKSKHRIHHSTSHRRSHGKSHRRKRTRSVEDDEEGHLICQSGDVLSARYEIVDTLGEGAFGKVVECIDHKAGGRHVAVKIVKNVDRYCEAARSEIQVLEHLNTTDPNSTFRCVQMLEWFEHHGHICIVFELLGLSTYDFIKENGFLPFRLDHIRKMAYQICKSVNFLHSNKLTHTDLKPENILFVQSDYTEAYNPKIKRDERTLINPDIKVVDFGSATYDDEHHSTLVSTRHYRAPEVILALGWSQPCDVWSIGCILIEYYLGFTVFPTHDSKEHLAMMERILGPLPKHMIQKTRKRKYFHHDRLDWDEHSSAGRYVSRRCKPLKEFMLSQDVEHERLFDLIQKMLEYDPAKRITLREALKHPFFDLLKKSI
Sequence of UniProt P36507 (whole entry, looked up): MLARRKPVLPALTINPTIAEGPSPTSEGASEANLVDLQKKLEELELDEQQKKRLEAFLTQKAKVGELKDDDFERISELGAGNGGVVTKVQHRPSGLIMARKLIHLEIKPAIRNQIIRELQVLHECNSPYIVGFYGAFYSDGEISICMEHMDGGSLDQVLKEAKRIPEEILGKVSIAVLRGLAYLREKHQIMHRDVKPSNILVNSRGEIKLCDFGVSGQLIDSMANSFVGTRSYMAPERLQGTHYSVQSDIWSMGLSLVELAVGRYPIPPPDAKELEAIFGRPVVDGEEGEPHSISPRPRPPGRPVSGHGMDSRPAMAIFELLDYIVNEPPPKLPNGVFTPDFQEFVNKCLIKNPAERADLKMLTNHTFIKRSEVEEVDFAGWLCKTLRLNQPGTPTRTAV
Sequence of UniProt Q05655 (whole entry, looked up): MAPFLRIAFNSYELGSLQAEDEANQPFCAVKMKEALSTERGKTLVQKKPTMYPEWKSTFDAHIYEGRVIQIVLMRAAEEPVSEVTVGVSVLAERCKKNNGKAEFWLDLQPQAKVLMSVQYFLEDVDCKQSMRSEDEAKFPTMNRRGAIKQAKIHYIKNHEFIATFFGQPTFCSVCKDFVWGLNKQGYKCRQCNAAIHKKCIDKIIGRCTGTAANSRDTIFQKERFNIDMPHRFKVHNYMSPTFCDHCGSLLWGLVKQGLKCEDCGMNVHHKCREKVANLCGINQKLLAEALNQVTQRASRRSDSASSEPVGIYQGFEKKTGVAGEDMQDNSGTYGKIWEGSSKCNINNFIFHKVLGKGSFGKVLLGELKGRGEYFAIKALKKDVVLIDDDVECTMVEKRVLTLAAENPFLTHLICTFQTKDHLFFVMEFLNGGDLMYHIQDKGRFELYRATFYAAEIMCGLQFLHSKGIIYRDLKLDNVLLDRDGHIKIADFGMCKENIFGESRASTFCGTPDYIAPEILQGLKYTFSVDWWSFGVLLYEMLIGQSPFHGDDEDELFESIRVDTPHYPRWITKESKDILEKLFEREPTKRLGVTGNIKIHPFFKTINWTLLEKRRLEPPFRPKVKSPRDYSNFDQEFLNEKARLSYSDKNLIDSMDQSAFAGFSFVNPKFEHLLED
Sequence of UniProt Q8NG66 (whole entry, looked up): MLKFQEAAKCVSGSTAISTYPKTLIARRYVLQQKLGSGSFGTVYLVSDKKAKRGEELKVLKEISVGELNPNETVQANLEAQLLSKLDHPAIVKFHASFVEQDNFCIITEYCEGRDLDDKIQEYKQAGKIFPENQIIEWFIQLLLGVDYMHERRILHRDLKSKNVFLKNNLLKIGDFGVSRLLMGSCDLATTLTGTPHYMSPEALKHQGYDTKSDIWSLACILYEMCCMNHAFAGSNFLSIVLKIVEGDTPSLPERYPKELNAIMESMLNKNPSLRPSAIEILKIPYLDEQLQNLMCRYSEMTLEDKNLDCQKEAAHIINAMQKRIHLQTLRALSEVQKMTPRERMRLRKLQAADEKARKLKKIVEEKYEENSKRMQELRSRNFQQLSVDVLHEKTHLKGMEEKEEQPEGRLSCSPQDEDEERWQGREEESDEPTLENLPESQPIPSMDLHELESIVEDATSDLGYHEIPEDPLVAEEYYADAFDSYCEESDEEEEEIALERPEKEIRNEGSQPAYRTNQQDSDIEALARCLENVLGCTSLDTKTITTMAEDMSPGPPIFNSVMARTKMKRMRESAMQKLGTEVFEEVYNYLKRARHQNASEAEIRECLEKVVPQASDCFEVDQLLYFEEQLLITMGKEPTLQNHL
Sequence of UniProt P42679 (whole entry, looked up): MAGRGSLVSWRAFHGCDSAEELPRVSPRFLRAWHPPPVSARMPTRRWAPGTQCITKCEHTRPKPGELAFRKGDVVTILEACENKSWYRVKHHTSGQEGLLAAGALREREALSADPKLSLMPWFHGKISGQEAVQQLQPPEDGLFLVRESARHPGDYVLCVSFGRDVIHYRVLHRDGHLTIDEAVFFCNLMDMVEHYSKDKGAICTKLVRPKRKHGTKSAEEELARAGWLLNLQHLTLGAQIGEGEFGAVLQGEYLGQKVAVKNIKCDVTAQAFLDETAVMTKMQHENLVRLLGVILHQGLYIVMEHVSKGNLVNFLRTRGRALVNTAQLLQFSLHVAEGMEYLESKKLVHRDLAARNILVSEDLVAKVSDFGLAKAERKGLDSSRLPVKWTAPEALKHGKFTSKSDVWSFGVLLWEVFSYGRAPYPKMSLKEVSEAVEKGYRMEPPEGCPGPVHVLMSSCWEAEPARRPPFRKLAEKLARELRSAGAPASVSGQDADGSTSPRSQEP
Sequence of UniProt Q13043 (whole entry, looked up): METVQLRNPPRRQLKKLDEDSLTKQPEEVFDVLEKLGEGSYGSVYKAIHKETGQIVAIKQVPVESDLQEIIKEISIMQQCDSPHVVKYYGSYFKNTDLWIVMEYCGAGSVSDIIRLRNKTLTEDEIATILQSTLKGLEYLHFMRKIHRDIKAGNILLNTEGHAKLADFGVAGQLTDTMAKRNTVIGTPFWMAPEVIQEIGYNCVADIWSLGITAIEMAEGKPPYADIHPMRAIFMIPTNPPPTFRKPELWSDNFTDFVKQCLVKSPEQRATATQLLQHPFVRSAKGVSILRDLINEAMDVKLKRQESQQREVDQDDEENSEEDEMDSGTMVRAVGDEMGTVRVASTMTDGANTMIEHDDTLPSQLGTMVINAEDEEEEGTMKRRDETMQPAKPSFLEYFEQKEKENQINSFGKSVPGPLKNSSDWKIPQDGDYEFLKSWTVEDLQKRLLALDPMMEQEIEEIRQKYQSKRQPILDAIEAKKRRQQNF
Sequence of UniProt Q8N5S9 (whole entry, looked up): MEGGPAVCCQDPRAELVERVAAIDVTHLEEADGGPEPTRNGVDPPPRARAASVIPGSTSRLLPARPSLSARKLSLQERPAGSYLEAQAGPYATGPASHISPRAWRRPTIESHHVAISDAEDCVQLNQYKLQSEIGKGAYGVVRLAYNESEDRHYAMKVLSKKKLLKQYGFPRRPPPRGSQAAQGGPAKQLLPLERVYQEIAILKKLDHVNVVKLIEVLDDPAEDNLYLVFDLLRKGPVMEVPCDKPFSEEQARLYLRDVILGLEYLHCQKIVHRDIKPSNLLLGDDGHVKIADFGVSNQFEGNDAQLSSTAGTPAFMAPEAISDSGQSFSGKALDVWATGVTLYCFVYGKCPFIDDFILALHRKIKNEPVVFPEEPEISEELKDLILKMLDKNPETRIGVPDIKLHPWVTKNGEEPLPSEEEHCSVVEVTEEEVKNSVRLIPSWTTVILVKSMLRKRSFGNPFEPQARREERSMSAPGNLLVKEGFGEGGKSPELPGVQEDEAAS

Block 1
Compound: CC1=C(C#N)[C@@H](c2ccc3[nH]nc(C)c3c2)C(C#N)=C(c2ccc(Cl)cc2)N1
Effect on: cell-free assay
Method: competition with immobilised ligand
Concentration: 1 µM
| target | remaining binding |
| --- | --- |
| NEK11 (Homo sapiens, UniProt Q8NG66) | 62.4% |
| CIT (Homo sapiens, UniProt O14578) | 100% |
| MYLK (Homo sapiens, UniProt Q15746) | 100% |
| Tyrosine-protein kinase ABL1, non-phosphorylated (ABL1, Homo sapiens, UniProt P00519) | 52.6% |
| SRMS (Homo sapiens, UniProt Q9H3Y6) | 92.7% |
| ERBB3 (Homo sapiens, UniProt P21860) | 63.9% |
| Tyrosine-protein kinase ABL1, non-phosphorylated (ABL1, Homo sapiens, UniProt P00519, H396P) | 79.9% |
| MAP3K11 (Homo sapiens, UniProt Q16584) | 100% |
| PLK2 (Homo sapiens, UniProt Q9NYY3) | 100% |
| Ribosomal protein S6 kinase alpha-2, C-terminal kinase domain (RPS6KA2, Homo sapiens, UniProt Q15349) | 100% |
| PIKFYVE (Homo sapiens, UniProt Q9Y2I7) | 100% |
| YES1 (Homo sapiens, UniProt P07947) | 100% |
| FGFR2 (Homo sapiens, UniProt P21802) | 74.3% |
| NLK (Homo sapiens, UniProt Q9UBE8) | 78.9% |
| PRKCD (Homo sapiens, UniProt Q05655) | 86.3% |
| TNK2 (Homo sapiens, UniProt Q07912) | 100% |
| SBK3 (Homo sapiens, UniProt P0C264) | 100% |
| TNK1 (Homo sapiens, UniProt Q13470) | 65% |
| RAF1 (Homo sapiens, UniProt P04049) | 100% |
| MAP4K5 (Homo sapiens, UniProt Q9Y4K4) | 54% |
| CLK1 (Homo sapiens, UniProt P49759) | 100% |
| EGFR (Homo sapiens, UniProt P00533, G719S) | 86.8% |
| STK4 (Homo sapiens, UniProt Q13043) | 100% |
| RIPK1 (Homo sapiens, UniProt Q13546) | 94.6% |
| MAP2K2 (Homo sapiens, UniProt P36507) | 100% |

Block 2
Target: Calcium/calmodulin-dependent protein kinase type II subunit alpha (CAMK2A, Homo sapiens, UniProt Q9UQM7)
Sequence of UniProt Q9UQM7 (whole entry, looked up): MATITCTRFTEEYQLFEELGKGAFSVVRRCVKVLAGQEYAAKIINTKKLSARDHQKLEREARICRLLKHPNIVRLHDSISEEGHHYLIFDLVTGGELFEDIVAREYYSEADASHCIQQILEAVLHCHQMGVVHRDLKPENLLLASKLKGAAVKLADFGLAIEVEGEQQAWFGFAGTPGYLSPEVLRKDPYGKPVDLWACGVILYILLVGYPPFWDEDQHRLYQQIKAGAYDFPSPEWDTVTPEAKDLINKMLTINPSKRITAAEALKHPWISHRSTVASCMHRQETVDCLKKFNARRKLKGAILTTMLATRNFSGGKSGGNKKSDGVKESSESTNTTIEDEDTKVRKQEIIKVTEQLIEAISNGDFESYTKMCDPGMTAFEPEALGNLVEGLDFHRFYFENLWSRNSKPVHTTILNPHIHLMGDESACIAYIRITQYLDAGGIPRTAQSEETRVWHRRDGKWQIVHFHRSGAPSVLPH
Effect on: enzyme activity
Mode: inhibitor
Concentration: 10 µM
| SMILES | inhibition |
| --- | --- |
| Cn1nnnc1SCC1=C(C(=O)O)N2C(=O)[C@@H](NC(=O)[C@H](O)c3ccccc3)[C@H]2SC1 | -1% |
| CC1=CC[C@H]2C[C@@H]1C2(C)C | -4% |
| Cc1cc(-c2ccccc2)nnc1NCCN1CCOCC1 | 8% |
| O=C(O)CC(=O)C(=O)O | -15% |
| O=C(O)c1cccc(Oc2ccccc2)c1 | -15% |
| O[C@@H](c1cc(C(F)(F)F)nc2c(C(F)(F)F)cccc12)[C@H]1CCCCN1 | 4% |
| O=C1Nc2ccccc2/C1=C1/Nc2ccccc2C1=O | 9% |
| CC1(C)Oc2cc3oc(=O)ccc3cc2CC1O (racemic) | -19% |
| O=C(O)C[C@@H]1CC[C@H](NC(=O)Cc2cccs2)B(O)O1 | 3% |
| COc1cccc(O)c1C(=O)O | 50% |
| CC/C=C\C/C=C\C/C=C\C/C=C\C/C=C\CCCCCC(=O)O | 5% |
| CN(C)CCOCC(=O)NC12CC3CC(CC(C3)C1)C2 | 2% |
| C[C@H](CSC(=O)c1ccccc1)C(=O)N1C[C@@H](Sc2ccccc2)C[C@H]1C(=O)O | -5% |
| O=C1CCc2ccc(OCCCCN3CCN(c4cccc(Cl)c4Cl)CC3)cc2N1 | -4% |
| O=C(CCc1ccc(O)cc1)c1c(O)cc(O)cc1O | 36% |

Block 3
SMILES: O=C(Nc1ccccc1)Nc1cccc(Oc2ccc3nccn3n2)c1
Concentration: 1 µM
| target | method | measured | setting | baseline | remaining binding [%] |
| --- | --- | --- | --- | --- | --- |
| CLK1 (Homo sapiens, UniProt P49759) | competitive binding panel | – | – | vehicle | 94 |
| RIOK1 (Homo sapiens, UniProt Q9BRS2) | competitive binding panel | – | – | vehicle | 52 |
| EIF2AK1 (Homo sapiens, UniProt Q9BQI3) | competitive binding panel | – | – | vehicle | 100 |
| LIM domain kinase 1 (LIMK1, Homo sapiens, UniProt P53667) | competitive binding panel | – | – | vehicle | 100 |
| PLK4 (Homo sapiens, UniProt O00444) | competitive binding panel | – | – | vehicle | 100 |
| FLT3 (Homo sapiens, UniProt P36888) | competitive binding panel | – | – | vehicle | 96 |
| JAK1 (Homo sapiens, UniProt P23458) | competitive binding panel | – | – | vehicle | 95 |
| BTK (Homo sapiens, UniProt Q06187) | competitive binding panel | – | – | vehicle | 100 |
| PRKAA1 (Homo sapiens, UniProt Q13131) | competitive binding | – | AMPK-alpha1 | – | 89 |
| Myosin-IIIb (MYO3B, Homo sapiens, UniProt Q8WXR4) | competitive binding panel | – | – | vehicle | 100 |
| PRKCD (Homo sapiens, UniProt Q05655) | competitive binding panel | – | – | vehicle | 84 |
| MAP2K2 (Homo sapiens, UniProt P36507) | competitive binding panel | MEK2 | – | vehicle | 100 |
| CAMKK1 (Homo sapiens, UniProt Q8N5S9) | competitive binding panel | – | – | vehicle | 100 |
| CHEK1 (Homo sapiens, UniProt O14757) | competitive binding panel | – | – | vehicle | 100 |
| FES (Homo sapiens, UniProt P07332) | competitive binding panel | – | – | vehicle | 100 |
| MATK (Homo sapiens, UniProt P42679) | competitive binding | – | CTK | – | 100 |
| MAP3K1 (Homo sapiens, UniProt Q13233) | competitive binding panel | – | – | vehicle | 100 |
| NTRK1 (Homo sapiens, UniProt P04629) | competitive binding | – | TRKA | – | 100 |
| HASPIN (Homo sapiens, UniProt Q8TF76) | competitive binding panel | – | – | vehicle | 96 |

Block 4
Target: Tyrosine-protein kinase HCK (HCK, Homo sapiens, UniProt P08631)
Sequence of UniProt P08631 (whole entry, looked up): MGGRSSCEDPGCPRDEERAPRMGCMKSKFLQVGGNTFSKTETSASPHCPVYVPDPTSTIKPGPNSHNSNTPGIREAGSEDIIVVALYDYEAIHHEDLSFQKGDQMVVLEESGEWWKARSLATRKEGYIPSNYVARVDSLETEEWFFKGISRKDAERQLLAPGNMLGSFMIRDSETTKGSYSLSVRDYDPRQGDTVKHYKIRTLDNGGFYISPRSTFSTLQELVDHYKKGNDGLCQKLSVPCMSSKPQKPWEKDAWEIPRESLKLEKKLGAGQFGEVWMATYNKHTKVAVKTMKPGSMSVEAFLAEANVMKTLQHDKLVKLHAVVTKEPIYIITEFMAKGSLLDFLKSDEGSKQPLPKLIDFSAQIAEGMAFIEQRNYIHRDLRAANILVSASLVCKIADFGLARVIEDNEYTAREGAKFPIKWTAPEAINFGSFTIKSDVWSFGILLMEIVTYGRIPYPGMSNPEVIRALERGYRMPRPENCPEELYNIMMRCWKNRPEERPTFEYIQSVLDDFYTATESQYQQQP
Effect on: enzyme activity
Mode: inhibitor
Concentration: 0.5 µM
Baseline: control
| Structure (SMILES) | remaining activity |
| --- | --- |
| CC(C)N(CCC(=O)c1ccc2ccccc2c1)Cc1ccccc1 | 94.9% |
| N#C/C(=C(/N)SC1C=CC=CC1)c1cccc(C(O)c2ccncc2)c1 (stereo not shown) | 97.6% |
| Nc1nc(Nc2ccc(S(N)(=O)=O)cc2)nn1C(=S)Nc1c(F)cccc1F | 37.9% |
| O=C1c2ccccc2-c2nc3nnnn3nc21 | 84% |
| CCCCc1c(-c2ccc(O)cc2)[nH]c2nccnc12 | 91.1% |
| NC(=O)c1cccc(-c2cc(Nc3ccc(OC(F)(F)F)cc3)ncn2)c1 | 92.9% |
| C[C@@H](N)[C@H]1CC[C@H](C(=O)Nc2ccncc2)CC1 | 97.9% |
| CC(C)(C)c1nc2c3cc[nH]c(=O)c3c3cc(F)ccc3c2[nH]1 | 84.8% |
| CC(C)n1cnc2c(Nc3cccc(Cl)c3)nc(NCCO)nc21 | 78% |
| O=C(c1ccccc1)c1ccc(N2CCOCC2)cc1O | 114% |
| FC(F)(F)c1ccc(/C=C/c2nc(COc3ccc(CCCCn4ccnn4)cc3)co2)cc1 | 93.9% |
| CCN(CC)CCCCN1c2ccccc2Oc2ccc(Cl)cc21 | 105% |
| O=C(O)/C=C/c1cc(Br)c(Br)c(Br)c1Br | 99.9% |
| c1cc(-c2cnn3cc(-c4ccc(OCCN5CCCCC5)cc4)cnc23)ccn1 | 62.6% |
| O=C1NC(=O)/C(=C/c2ccc3c(c2)OC(F)(F)O3)S1 | 89.8% |
| Clc1ccc(Nc2nnc(Cc3ccncc3)c3ccccc23)cc1 | 89.5% |
| CNc1cc2c(Nc3cccc(Br)c3)ncnc2cn1 | 84.5% |
| O=Nc1c(-c2c(O)[nH]c3ccccc23)[nH]c2ccccc12 | 60.2% |
| N#CC(c1ccnc(NCCc2cccnc2)n1)c1nc2ccccc2s1 (stereo not shown) | 92.2% |
| O=c1c(-c2ccc(F)cc2)c(-c2ccncc2)[nH]n1-c1ccc(Cl)cc1 | 91.1% |

Repeated from above (block 3):
| target | method | measured | setting | baseline | remaining binding [%] |
| --- | --- | --- | --- | --- | --- |
| PRKAA1 (Homo sapiens, UniProt Q13131) | competitive binding | – | AMPK-alpha1 | – | 89 |
| Myosin-IIIb (MYO3B, Homo sapiens, UniProt Q8WXR4) | competitive binding panel | – | – | vehicle | 100 |
| PRKCD (Homo sapiens, UniProt Q05655) | competitive binding panel | – | – | vehicle | 84 |
| MAP2K2 (Homo sapiens, UniProt P36507) | competitive binding panel | MEK2 | – | vehicle | 100 |
| CAMKK1 (Homo sapiens, UniProt Q8N5S9) | competitive binding panel | – | – | vehicle | 100 |
| CHEK1 (Homo sapiens, UniProt O14757) | competitive binding panel | – | – | vehicle | 100 |
| FES (Homo sapiens, UniProt P07332) | competitive binding panel | – | – | vehicle | 100 |
| MATK (Homo sapiens, UniProt P42679) | competitive binding | – | CTK | – | 100 |
| MAP3K1 (Homo sapiens, UniProt Q13233) | competitive binding panel | – | – | vehicle | 100 |
